Measurements pooled from the literature.
A part holds a random share of what one study measured. Values joined by “and” are separate records of one study, mostly repeats; a detail may differ.

Study 1
Target: Prothrombin, mature alpha-thrombin (F2, Homo sapiens, UniProt P00734)
Technique: aptamer microarray, sandwich
Form: DNA with 2'F-ANA
Sample: in vitro
Concentration: 200 nM
Setting: whole 15-mer aptamer, many near background
Together with: Cy3 exosite-II aptamer, 400 nM
Reading: higher = stronger binding
`GGTTGGTGTGGTTGG (2'F-ANA at 1 4 8 10 11 12)` — result for “mean fluorescence intensity”: 55 a.u.
For `GGTTGGTGTGGTTGG (2'F-ANA at 1 4 5 6 8 12 13 14 15)`, “mean fluorescence intensity” read 72.8 a.u.
For `GGTTGGTGTGGTTGG (2'F-ANA at 1 2 3 4 6 7 8 9 10 11 13 14)`, “mean fluorescence intensity” read 53.4 a.u.
`GGTTGGTGTGGTTGG (2'F-ANA at 1 3 5 6 8 10 14)`: “mean fluorescence intensity” 48.4 a.u.

Study 2
Target: POU, POU domain (Salpingoeca helianthica)
Technique: Spec-seq
Form: double-stranded DNA, one strand shown
Sample: in vitro
Concentration: not given
Setting: whole probe, mean of replicates
Relative to: not given
Reading: lower = stronger binding
Shared flanks, not repeated: GAGTCGTCTCGTCAGCAC … CCGTAGAGCACTCAGGTC
Target sequence (chain): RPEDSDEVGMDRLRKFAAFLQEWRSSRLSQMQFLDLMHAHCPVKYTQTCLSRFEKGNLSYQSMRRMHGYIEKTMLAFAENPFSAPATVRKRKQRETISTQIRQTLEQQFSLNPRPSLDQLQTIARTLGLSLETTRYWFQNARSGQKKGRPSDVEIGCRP
For `ATGCCTTG`, “relative binding energy” read 1.2 ln ratio.
Under “relative binding energy”, `ATCTGCAT` is recorded as 1.22 ln ratio.
For `CGATTAAT`, “relative binding energy” read -0.322 ln ratio.
`AGTGTAAT` — result for “relative binding energy”: 0.818 ln ratio.
Under “relative binding energy”, `ATCGAGAT` is recorded as 1.49 ln ratio.

Study 3
Target: Sal-like protein 4, full length isoform A (SALL4, Homo sapiens, UniProt Q9UJQ4, residues 1-1053)
Chain of UniProt Q9UJQ4 (whole entry, looked up): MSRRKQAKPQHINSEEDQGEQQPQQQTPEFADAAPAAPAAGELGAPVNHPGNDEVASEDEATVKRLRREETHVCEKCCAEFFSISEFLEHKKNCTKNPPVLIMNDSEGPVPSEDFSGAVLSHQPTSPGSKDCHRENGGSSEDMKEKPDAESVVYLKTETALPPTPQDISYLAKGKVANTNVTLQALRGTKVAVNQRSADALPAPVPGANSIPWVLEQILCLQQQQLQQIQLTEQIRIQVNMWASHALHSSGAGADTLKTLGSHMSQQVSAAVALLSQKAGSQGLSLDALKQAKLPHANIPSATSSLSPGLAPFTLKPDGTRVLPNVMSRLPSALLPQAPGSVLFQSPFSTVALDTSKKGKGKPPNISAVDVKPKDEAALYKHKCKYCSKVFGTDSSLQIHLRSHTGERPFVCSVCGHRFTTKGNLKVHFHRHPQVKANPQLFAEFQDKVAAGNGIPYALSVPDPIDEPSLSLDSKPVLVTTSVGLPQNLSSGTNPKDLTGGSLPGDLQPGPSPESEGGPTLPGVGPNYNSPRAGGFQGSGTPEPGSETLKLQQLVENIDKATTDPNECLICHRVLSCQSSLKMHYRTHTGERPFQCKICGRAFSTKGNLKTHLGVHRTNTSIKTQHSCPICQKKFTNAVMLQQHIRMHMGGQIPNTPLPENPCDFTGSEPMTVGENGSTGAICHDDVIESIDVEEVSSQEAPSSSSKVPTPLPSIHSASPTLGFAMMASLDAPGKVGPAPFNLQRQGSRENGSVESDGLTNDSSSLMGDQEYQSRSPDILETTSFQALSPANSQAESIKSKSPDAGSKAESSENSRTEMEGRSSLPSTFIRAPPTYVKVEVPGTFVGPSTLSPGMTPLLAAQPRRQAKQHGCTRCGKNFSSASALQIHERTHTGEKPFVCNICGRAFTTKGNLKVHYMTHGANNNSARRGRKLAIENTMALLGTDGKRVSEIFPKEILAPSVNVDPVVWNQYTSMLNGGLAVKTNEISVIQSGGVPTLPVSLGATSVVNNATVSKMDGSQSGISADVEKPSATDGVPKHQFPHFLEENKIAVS
Technique: universal PBM
Form: double-stranded DNA, one strand shown
Sample: in vitro
Concentration: 600 nM
Setting: 8-mer, flanks averaged, mean of replicates
Reading: higher = stronger binding
With `GGAAAAGA` the E-score was 0.0911.
`ACAAGAGT` has an E-score of 0.0893.
For `AGCAGCCT`, the E-score was -0.17.
`AATACTTC` gave an E-score of 0.262.
For `GTCCAATA`, the E-score was 0.158.

Mixed results
`PhoQ, residues 284 288 289 292 302 303 AANNSF` has a fold induction of 17.2 and 10.7 (PhoP, residues 12 14 15 18 19 LWHCS (Escherichia coli, UniProt P23836); Sort-seq, measured: YFP reporter; E. coli; PhoQ-PhoP variant library, together with: 10 µM Mg2+; relative to: high Mg2+ state, higher = stronger signaling).

A few entries again (study 1):
For `GGTTGGTGTGGTTGG (2'F-ANA at 1 2 3 4 6 7 8 9 10 11 13 14)`, “mean fluorescence intensity” read 53.4 a.u.
`GGTTGGTGTGGTTGG (2'F-ANA at 1 4 8 10 11 12)` — result for “mean fluorescence intensity”: 55 a.u.
